Assay results collected from several papers.
Lines come from different studies, so protocols differ. ± marks the error that the study gave. Bridges are numbered along the chain shown (N, C = ends). Where no end group is shown, it is not given here.

N=C(N)NCCC[C@H](NC(=O)[C@H](Cc1c[nH]c2ccccc12)NC(=O)[C@H](CCC(N)=O)NC(=O)[C@H](Cc1c[nH]c2ccccc12)NC(=O)[C@H](CCCNC(=N)N)NC(=O)[C@H](Cc1c[nH]c2ccccc12)NC(=O)[C@H](CCC(N)=O)NC(=O)[C@H](Cc1c[nH]c2ccccc12)NC(=O)[C@H](CCCNC(=N)N)NC(=O)CCCCCN)C(N)=O — hemolysis (human erythrocytes O+; 200 µg/mL, 2 h, 37 °C): 7.7%
CCCCCCCCCC[N+](C)(C)CCCCCCCCCC — intrinsic clearance (substrate depletion; human liver microsomes; 0.5 µM, 0 to 3 h, 37 °C, added: NADPH): 0.966 mL/h/mg protein
COc1ccc(-c2cc(=O)c3c(OC)c(OC)c(OC)c(OC)c3o2)cc1OC — tissue to peel content ratio (C57BL/6 mouse, male, liver; oral, 1% w/w in diet, 6 weeks, orange peel extract diet; reference: content in orange peel): 0.055%
[123I]c1cncc(OC[C@@H]2CCN2)c1 — tissue/plasma ratio (SPECT; human, thalamus; intravenous bolus plus infusion, 8.1 mCi; reference: plasma): 35.8
CC(C)C[C@H](NC(=O)[C@H](CCC(=O)O)NC(=O)[C@H](CCC(=O)O)NC(=O)[C@H](CC(=O)O)NC(=O)[C@H](CCC(=O)O)NC(=O)[C@H](CCC(=O)O)NC(=O)[C@H](CCC(=O)O)NC(=O)[C@@H](N)CC(=O)O)C(=O)O — concentration (rat, CSF; subcutaneous, 11.0 mg/kg, 150 min): 9.4 ng/mL
CN[C@@](C)(C[18F])C(=O)O — tissue uptake (SCID mouse MDA-MB-468 xenograft, brain; 120 min, post injection): 0.3 ± 0.1 %ID/g
FFPKVAGVAAKVLKKFCTISKKC (disulfide 17-23 (inferred)) (disulfide) — HC10 (haemolysis; horse erythrocytes; 2 h, 37 °C): > 128 µM
CCCCCOc1ccc(-c2ccc(-c3ccc(C(=O)N[C@H]4C[C@@H](O)[C@@H](O)NC(=O)[C@@H]5[C@@H](O)[C@@H](C)CN5C(=O)[C@H]([C@@H](C)O)NC(=O)[C@H]([C@H](O)[C@@H](O)c5ccc(O)cc5)NC(=O)[C@@H]5C[C@@H](O)CN5C(=O)[C@H]([C@@H](C)O)NC4=O)cc3)cc2)cc1 — steady-state clearance (human neonates, plasma; intravenous, 1.5 mg/kg/day after 3 mg/kg loading): 0.333 mL/min/kg
CC[C@H](C)C(=O)O[C@H]1C[C@H](O)C=C2C=C[C@H](C)[C@H](CC[C@@H](O)C[C@@H](O)CC(=O)O)[C@H]21 — AUC (healthy volunteers, plasma; oral, dose not given, given alone): 49.4 ng·h/mL
COc1ccc(C[C@@H]2NC(=O)[C@H]([C@@H](C)O)NC(=O)[C@@H]3[C@@H]4CCN3C(=O)[C@@H]3Cc5cn(c6ccc(F)cc56)CCCCCCN(Cc5ccc(cc5)CCNC(=O)[C@]5(C)CCCN5C2=O)C(=O)CCC(=O)N[C@@H](C)C(=O)N[C@H](CNC(=O)CCCCC[N+](C)(C)C)C(=O)N[C@@H](Cc2cccc(c2)CNC(=O)CO4)C(=O)N3)cc1 — AUC(0-t) (fasted healthy humans, plasma; oral, 35 mg single dose, with 1800 mg Labrasol, geometric mean): 0.501 µM·h
CSCC[C@@H]1NC(=O)[C@H](CC(=O)O)NC(=O)CNC(=O)[C@H](CCCNC(=N)N)NC(=O)[C@H](C)NC(=O)[C@H](CCC(=O)O)NC(=O)[C@H](CCCNC(=N)N)NC(=O)[C@@H]2CSSC[C@@H]3NC(=O)[C@H](CO)NC(=O)[C@H]([C@@H](C)O)NC(=O)[C@@H]4CCCN4C(=O)[C@H](C)NC(=O)[C@H](Cc4c[nH]c5ccccc45)NC(=O)[C@H](CC(=O)O)NC(=O)CNC(=O)[C@H](CCCNC(=N)N)NC(=O)CNC(=O)[C@H](CCC(N)=O)NC(=O)[C@@H]4CCCN4C(=O)[C@@H](NC(=O)CNC(=O)C(C)F)CSSC[C@H](NC(=O)CNC(=O)[C@H](C)NC(=O)[C@H](CC(C)C)NC(=O)[C@H](CSSC[C@@H](C(=O)NCC(N)=O)NC(=O)[C@H]([C@@H](C)O)NC(=O)[C@H](CCCNC(=N)N)NC(=O)[C@@H]4CCCN4C1=O)NC(=O)[C@H](CC(=O)O)NC(=O)[C@H](CO)NC(=O)[C@H](CC(=O)O)NC(=O)[C@H](CCC(N)=O)NC(=O)[C@H](CO)NC3=O)C(=O)N[C@@H](C(C)C)C(=O)N2 (stereo partly drawn) [fluorine-18 labelled] — tissue uptake (nude mice U-87 MG xenograft, spleen; intravenous, 2.5 h): 0.48 ± 0.1 %ID/g
O=[N+]([O-])CCO — apparent permeability (rabbit cornea ex vivo; 100 mM, 30 to 120 min, 37 °C, intact epithelium): 43.3 ×10⁻⁶ cm/s

For quick reference, copied from above:
CC(C)C[C@H](NC(=O)[C@H](CCC(=O)O)NC(=O)[C@H](CCC(=O)O)NC(=O)[C@H](CC(=O)O)NC(=O)[C@H](CCC(=O)O)NC(=O)[C@H](CCC(=O)O)NC(=O)[C@H](CCC(=O)O)NC(=O)[C@@H](N)CC(=O)O)C(=O)O — concentration (rat, CSF; subcutaneous, 11.0 mg/kg, 150 min): 9.4 ng/mL
COc1ccc(C[C@@H]2NC(=O)[C@H]([C@@H](C)O)NC(=O)[C@@H]3[C@@H]4CCN3C(=O)[C@@H]3Cc5cn(c6ccc(F)cc56)CCCCCCN(Cc5ccc(cc5)CCNC(=O)[C@]5(C)CCCN5C2=O)C(=O)CCC(=O)N[C@@H](C)C(=O)N[C@H](CNC(=O)CCCCC[N+](C)(C)C)C(=O)N[C@@H](Cc2cccc(c2)CNC(=O)CO4)C(=O)N3)cc1 — AUC(0-t) (fasted healthy humans, plasma; oral, 35 mg single dose, with 1800 mg Labrasol, geometric mean): 0.501 µM·h
